Experimental data of several laboratories.
Every numbered part comes from another study and shows a few of its results, in no order. Substitutions count along the parent as printed.

Series 1 — technique: competition protein-binding microarray; form: double-stranded DNA, one strand shown; matrix: in vitro; tested at: 2 µM; with: Pho4 competitor, 0.05 µM; reading: higher = stronger binding
Target: Centromere-binding protein 1, full length, His-tagged (CBF1, Saccharomyces cerevisiae, UniProt P17106, residues 1-351)
Chain of UniProt P17106 (whole entry, looked up): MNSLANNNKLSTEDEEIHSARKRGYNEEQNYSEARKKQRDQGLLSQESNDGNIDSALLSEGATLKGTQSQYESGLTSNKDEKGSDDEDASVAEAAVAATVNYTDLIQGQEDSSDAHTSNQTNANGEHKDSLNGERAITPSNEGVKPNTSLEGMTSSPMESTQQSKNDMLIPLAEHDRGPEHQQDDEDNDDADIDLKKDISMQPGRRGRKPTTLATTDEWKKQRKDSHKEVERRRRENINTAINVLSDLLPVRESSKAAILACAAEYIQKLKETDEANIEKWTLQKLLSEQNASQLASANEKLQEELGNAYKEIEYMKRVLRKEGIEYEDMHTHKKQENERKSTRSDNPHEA
Setting: whole 60-bp probe, lowest competitor level
Sequence	fluorescence intensity [a.u.]
GTAGCTACATTGCCGTGCGTGGCAACAACCTAATTAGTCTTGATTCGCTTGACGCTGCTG	62.5
CATACCCAACCTTGTCACAGGACTTAAGATATTTGTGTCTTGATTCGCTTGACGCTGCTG	124
AAGAAGCCATTAGAGCTCGTGCCAGGGAACTAGAAGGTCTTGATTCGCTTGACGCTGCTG	85.3
CGTCCTAGTGATTGGATCGTGGGTGCCATGAGGAAGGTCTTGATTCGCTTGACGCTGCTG	89.9
ATTAAGATCAATCGGCACGTGCTTTTTTCGAACATCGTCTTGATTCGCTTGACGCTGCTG	2540
GCAATTGAGCTTTAGCACGTGCAATTAGGATGAAAAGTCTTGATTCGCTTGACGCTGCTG	2290
TTGTAATGAGTTGGGCACATGGCGCAGTTGGTAGCGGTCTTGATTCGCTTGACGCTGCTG	120
AGTTAAAACCAGATATGCGTGGGACATAGTAGGGTGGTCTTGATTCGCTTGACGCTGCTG	70.5
GGTGGGGGACCTGTAGTCGTGCCGAGCGATCCGCTTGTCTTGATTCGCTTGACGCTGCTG	82.4
GCCAGGGTGCGCTGGCACGCAGGGTAAGAGCCGCAAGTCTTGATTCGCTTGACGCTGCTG	54
GTCTTGTCTCATTGTCACTACACTTTCCCCACTTCAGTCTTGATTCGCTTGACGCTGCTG	102
TGCGCAACAACTTTTCACGTGAATTTATGTCTAGAAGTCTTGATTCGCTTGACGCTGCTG	991
CTTTCCCGATCTTGGCGAGTGGGTGTAGCACATTTGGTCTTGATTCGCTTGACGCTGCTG	61.9

Series 2 — technique: DHFR PCA, deep sequencing; matrix: yeast; with: (+)-ABA 17 µM; baseline: wild-type fitted maximum; reading: higher = stronger binding
Target: ABI1, truncated, D143A, DHFR fusion (Arabidopsis thaliana)
Setting: methotrexate growth selection, single substitutions
Starting sequence: PYL1, truncated, DHFR fusion (Arabidopsis thaliana); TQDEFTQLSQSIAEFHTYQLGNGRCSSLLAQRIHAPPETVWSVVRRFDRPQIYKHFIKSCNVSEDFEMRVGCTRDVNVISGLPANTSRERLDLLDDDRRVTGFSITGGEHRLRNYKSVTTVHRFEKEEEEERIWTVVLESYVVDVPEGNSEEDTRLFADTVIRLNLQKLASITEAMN; partner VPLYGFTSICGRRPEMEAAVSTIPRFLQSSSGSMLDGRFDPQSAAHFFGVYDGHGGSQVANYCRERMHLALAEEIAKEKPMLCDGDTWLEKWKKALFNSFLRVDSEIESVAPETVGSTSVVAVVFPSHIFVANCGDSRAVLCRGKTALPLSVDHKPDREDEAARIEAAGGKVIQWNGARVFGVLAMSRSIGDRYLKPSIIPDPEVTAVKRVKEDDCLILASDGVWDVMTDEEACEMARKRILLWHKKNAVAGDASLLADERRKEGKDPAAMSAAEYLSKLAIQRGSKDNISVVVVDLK
Substitution	relative binding score
V121Y	-13.7%
E109G	53.3%
N61Y	83.9%
L138F	76%
D75G	43%
D48L	4.66%
F124T	54%
K168G	71.5%
K116H	73.9%
F56N	0.488%
F47G	-11.8%
F157Y	49.1%
T17F	37.3%

Series 3 — technique: RNA Bind-n-Seq; form: RNA; matrix: in vitro; tested at: 200 nM; setting: whole 134-nt RNA, ends assumed; with: 150 mM KCl; baseline: input library; reading: higher = stronger binding
Target: Fragile X messenger ribonucleoprotein 1, C-terminal low-complexity region (Fmr1, Mus musculus, UniProt P35922)
Sequence	log2 enrichment
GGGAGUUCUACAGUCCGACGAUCCAAGUCCUGUGCUACACAUCGUAUGUACCGAAUCGGGAAAGGAAAGGGAAAGGGGAAAGUAUUAUGUUACGCCGUUCGGAUCUGCACUUCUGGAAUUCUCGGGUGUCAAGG	0.139
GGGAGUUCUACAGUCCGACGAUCUAACUUUAGAGGAGGAUCUGAUGGAUAUGGCAGUGGACGUGGAUUUGGGGAUGGCUAUAGUGGGUAUGGAGGAGGACCUGGAGGUGGCAAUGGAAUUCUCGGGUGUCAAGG	0.343
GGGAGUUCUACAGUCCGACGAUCCUCAAGUCCUGUGCUACACAUCGUAUGUACCGAAUCGGGGUUGGGGUUGGUUGGAAAGUAUUAUGUUACGCCGUUCGGAUCUGCACUUCCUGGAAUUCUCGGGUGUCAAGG	0.454
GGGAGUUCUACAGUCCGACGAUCCACAGACAACACGCACCCACACAGACACAGAGGGAAGGGGUUGGGAUGGGGACAGGGUGCACAGCAGGGCGGGGUAAGACCCCAGCCCCUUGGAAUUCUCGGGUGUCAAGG	1.39
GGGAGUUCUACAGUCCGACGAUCUCCUGUGCUACACAUCGUAUGUACCGAAUCGGGAAAAAGGGAAAAAGGGAAAAAAAGGGAAAGUAUUAUGUUACGCCGUUCGGAUCUGCAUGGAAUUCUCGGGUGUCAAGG	-0.201
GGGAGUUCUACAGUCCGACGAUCUCCUCAAGUCCUGUGCUACACAUCGUAUGUACCGAAUCGGCGGGGCGGCGGAAAGUAUUAUGUUACGCCGUUCGGAUCUGCACUUCCAGCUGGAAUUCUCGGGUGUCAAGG	-0.163
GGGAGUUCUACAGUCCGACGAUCGCAGGAAGUAAAAACAAAUGGAAAUGCAAAGGAUAGUGGCAGGGGUGGGGGUUGCUAAGGAAAGGGUGGGAUGGGAGUGGGUAAAGAGUUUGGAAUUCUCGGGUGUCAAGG	0.205
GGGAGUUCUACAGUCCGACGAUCUAACUUUAGAGGAGGAUCUGAUGGAUAUGGCAGUGGACGGGGAUUUGGGGAUGGCUAUAAUGGGUAUGGAGGAGGACCUGGAGGUGGCAAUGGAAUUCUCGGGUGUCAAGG	0.381
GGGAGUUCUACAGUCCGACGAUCCCUCAAGUCCUGUGCUACACAUCGUAUGUACCGAAUCGGGAGGGGAGGGAGGAAAGUAUUAUGUUACGCCGUUCGGAUCUGCACUUCCAGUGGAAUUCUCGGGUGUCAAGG	0.65
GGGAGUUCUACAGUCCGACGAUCUCAAGUCCUGUGCUACACAUCGUAUGUACCGAAUCGGGCCGGCCGGGGCCGGGGAAAGUAUUAUGUUACGCCGUUCGGAUCUGCACUUCCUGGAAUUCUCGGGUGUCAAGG	-0.289
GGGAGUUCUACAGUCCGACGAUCCAAGUCCUGUGCUACACAUCGUAUGUACCGAAUCGGGGAAAGGGGAGGGGAGGGGAAAGUAUUAUGUUACGCCGUUCGGAUCUGCACUUCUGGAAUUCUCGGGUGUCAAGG	1.11
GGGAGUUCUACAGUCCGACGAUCCUCAAGUCCUGUGCUACACAUCGUAUGUACCGAAUCGGGUUGGGUUGGGUUGGAAAGUAUUAUGUUACGCCGUUCGGAUCUGCACUUCCAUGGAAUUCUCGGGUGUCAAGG	0.548
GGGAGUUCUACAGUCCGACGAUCCACAGACAACACGCACCCACACAGACACAGAGGGAAGGGGUUGGGAUGGGGACAGGGUGCGCAGCAGGGCGGGGUAGGACCCCAGCCCCUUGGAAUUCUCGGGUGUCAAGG	1.23
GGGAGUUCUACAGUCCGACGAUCGUCCUGUGCUACACAUCGUAUGUACCGAAUCGGGGUGGGGAAAGGGGUUUUUUUGGGGAAAGUAUUAUGUUACGCCGUUCGGAUCUGCACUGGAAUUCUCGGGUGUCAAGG	0.583

Series 4 — technique: RNA Bind-n-Seq; form: RNA; matrix: in vitro; tested at: not given; baseline: input RNA pool; reading: higher = stronger binding
Target: RING finger protein unkempt homolog, zinc fingers 1-6, GST-SBP tag (UNK, Homo sapiens, UniProt Q9C0B0, residues 30-357)
Setting: RNA with constant flanks, human and mouse sites, ends assumed
Residues (chain): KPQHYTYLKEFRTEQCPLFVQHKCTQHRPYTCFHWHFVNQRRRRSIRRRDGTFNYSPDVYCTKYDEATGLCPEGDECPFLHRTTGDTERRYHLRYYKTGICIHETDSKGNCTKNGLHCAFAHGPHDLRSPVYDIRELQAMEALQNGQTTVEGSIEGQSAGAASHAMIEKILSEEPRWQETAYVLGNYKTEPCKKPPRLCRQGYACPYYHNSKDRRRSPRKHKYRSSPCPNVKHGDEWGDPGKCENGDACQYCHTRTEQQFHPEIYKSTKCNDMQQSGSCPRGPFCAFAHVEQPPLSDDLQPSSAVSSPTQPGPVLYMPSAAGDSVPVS
Sequence	bound/input enrichment [ratio]
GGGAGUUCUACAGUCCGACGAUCAAGGAACUUGCAUCAGCACUGAAGUCAGCCUUAUCUGGCCACCUGGAGACGGUGAUUUUGGGCCUAUUGAAGACACCUGCUCAGUAUGACGCUUCUGAGCUAAAAGCUUCCAUGAAGGGGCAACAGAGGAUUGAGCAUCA	0.0752
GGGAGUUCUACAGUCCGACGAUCGAAUCCACAAAUGAACAGUUACAGAUACACUAUAAGGUUUGCUAUGCGCGUGUCCUUGAUUACAGAAGGAAAUUCAUUGAGGCCGCCCAGAGGUACAAUGAGCUCUCUUACAAGACAAUACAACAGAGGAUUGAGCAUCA	0.398
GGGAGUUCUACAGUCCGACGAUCUGGAUCGAGGGUGAUGAACUUCACCUGGAAAUGAGAGCUGAGGGUGUGAUCUGCAAGCAAGUGUUUAAGAAAGUACACUGAGCAGCCCGAACAGCCCGAGGAGAUAACCUUGGUCUUCAGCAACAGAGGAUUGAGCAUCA	0.053
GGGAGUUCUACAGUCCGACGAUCUUUAAGUCUGGAGGCAUUCCUGCCCUGGUGAAAAUGCUUGGUUCACCAGUGGAUUCUGUGUUGUUUUAUGCCAUUACAACUCUCCACAACCUUUUAUUACAUCAAGAAGGAGCUAAAAUGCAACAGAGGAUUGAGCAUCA	0.284
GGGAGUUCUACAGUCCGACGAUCAAAUUGUGCAGCUAUUUUAAAAGUUGUAUAUAUAAUGUGUGUAAAAACUGUAUAAAAAGGGGGGGGGGACAAAGGCAUUGCUUUGUUCUACUUCAAUUUCUUAAAAAUCACUACAUGGUACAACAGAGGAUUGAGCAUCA	0.224
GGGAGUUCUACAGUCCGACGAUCAGAGGGUAUGUCUCCUGUGCCCUCGGAUGCCCCUACGAGGGGAAGGUCUCCCCGGCUAAAGUUGCUGAGGUUGCCAAGAAGUUGUACUCGAUGGGCUGCUAUGAGAUCUCCCUUGGGGACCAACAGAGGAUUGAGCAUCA	0.18
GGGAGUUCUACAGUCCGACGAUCAGGGACACAGUGUGUGUCUGAUUGGGCUUCGCAUCAAAAGCCUGACGUUCCUGUCCCUCUUAUAGGGGGAGCUUUGGACACAGGACCAGUUUGAUAAAGGGCCAGGUAAGGGUUUCCACUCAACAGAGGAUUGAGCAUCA	0.0667
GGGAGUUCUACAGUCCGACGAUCUACUUAAAUGAAAUAAAACCUCCCAUCAUACACUAUGACCUCAAACCAGGUAAUAUCCUUUUAGUAAAUGGUACAGCAUGUGGAGAGAUAAAAAUUACAGAUUUUGGUCUUUCCAAGAUCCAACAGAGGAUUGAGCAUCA	0.477
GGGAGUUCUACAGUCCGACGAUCCCUCUGGCCACAUAUGCCCCUGUCAUCUCUGCUGAGAAAGCCUACCACGAACAGCUUACUGUAGCAGAGAUCACCAAUGCUUGCUUUGAGCCAGCCAACCAGAUGGUGAAAUGUGACCCUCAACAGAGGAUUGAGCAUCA	0.103
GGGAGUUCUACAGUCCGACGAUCACUAGUGAUUCUAGUGAAGGAAAAACAAAAAGUGUACGGCAUGCGUAUGUCCACAAACCAUAUCUUUACUCAAAAUACUAUAGUGAUUCUGAUGAUGAGCUUACUGUAGAACAACGACGACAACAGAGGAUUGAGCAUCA	0.292
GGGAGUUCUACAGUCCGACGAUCUUCUGGGGAUAUAAUUCAGGUUGAUGAAAAAACUGUAGGAGAGCCUGGUUGGCUUUAUGGUAGUUUUCAGGGAAAGUUUGGCUGGUUCCCGUGCAACUAUGUAGAAAAAGUGCUGUCAAGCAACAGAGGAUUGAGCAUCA	0.548

Series 5 — target: CCNA1, cyclin fold, Cln2 fusion (human); technique: yeast growth competition, sequencing; matrix: yeast; setting: weak parent motif; baseline: not given; reading: higher = stronger binding
Starting sequence: ORC1 docking peptide (human); PRARKRLELGNLG
Substitution	normalised enrichment score
A3F	0.303
L7H	0.238
E8H	-0.0999
A3G	0.281
P1V	0.291
L9P	0.237
R2Q	0.342
G13N	0.477
A3C	0.726
R4M	0.451
G10H	-0.0424
L9R	0.622
L7S	0.104
R4N	0.217
K5Y	0.0818
E8T	0.0721
R4F	0.158

Mixed results
Substance	target	assay	system	conditions	scale	endpoint	result
PhoQ, residues 284 288 289 292 302 303 AANNSF	PhoP, residues 12 14 15 18 19 QWHVF (Escherichia coli, UniProt P23836)	Sort-seq, refers to: YFP reporter	E. coli	PhoQ-PhoP variant library, with: 10 µM Mg2+	baseline: high Mg2+ state, higher = stronger signaling	fold induction	1.74

Some of these lines once more (series 2):
Substitution	relative binding score
K168G	71.5%
T17F	37.3%
F157Y	49.1%
N61Y	83.9%
F47G	-11.8%
F124T	54%
